Published values gathered from unrelated publications.
Numbered parts are unrelated; each lists some results of a single study. Several values in a cell are separate wells, animals, samples, runs or records.
Chain of UniProt P29323 (whole entry, looked up): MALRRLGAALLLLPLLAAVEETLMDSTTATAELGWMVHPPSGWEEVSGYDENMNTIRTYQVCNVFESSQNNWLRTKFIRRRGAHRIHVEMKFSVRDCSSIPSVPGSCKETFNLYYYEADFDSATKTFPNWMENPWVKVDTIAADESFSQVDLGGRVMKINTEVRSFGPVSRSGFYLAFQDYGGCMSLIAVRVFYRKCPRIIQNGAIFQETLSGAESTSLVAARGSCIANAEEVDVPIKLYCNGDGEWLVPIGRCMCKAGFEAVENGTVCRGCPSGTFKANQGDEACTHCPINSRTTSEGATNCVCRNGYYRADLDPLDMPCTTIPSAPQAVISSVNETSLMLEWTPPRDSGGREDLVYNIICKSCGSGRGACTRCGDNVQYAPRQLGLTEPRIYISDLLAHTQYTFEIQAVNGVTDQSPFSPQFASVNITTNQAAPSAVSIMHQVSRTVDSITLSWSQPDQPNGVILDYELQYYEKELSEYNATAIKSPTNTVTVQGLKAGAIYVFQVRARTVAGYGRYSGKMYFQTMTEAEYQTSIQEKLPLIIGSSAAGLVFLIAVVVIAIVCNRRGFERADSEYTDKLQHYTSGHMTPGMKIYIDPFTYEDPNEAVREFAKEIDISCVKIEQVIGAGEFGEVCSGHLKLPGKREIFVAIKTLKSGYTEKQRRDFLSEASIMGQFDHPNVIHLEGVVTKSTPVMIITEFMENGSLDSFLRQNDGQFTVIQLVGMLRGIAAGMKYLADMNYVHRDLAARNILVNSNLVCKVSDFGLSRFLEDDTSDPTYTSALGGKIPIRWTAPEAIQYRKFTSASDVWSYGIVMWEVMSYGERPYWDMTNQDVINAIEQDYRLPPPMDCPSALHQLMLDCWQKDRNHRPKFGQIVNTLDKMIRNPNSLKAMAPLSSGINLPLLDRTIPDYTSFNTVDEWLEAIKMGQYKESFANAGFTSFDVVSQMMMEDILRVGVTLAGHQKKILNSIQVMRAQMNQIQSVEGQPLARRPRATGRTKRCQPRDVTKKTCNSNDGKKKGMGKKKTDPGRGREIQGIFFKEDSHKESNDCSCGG
Chain of UniProt Q8TF76 (whole entry, looked up): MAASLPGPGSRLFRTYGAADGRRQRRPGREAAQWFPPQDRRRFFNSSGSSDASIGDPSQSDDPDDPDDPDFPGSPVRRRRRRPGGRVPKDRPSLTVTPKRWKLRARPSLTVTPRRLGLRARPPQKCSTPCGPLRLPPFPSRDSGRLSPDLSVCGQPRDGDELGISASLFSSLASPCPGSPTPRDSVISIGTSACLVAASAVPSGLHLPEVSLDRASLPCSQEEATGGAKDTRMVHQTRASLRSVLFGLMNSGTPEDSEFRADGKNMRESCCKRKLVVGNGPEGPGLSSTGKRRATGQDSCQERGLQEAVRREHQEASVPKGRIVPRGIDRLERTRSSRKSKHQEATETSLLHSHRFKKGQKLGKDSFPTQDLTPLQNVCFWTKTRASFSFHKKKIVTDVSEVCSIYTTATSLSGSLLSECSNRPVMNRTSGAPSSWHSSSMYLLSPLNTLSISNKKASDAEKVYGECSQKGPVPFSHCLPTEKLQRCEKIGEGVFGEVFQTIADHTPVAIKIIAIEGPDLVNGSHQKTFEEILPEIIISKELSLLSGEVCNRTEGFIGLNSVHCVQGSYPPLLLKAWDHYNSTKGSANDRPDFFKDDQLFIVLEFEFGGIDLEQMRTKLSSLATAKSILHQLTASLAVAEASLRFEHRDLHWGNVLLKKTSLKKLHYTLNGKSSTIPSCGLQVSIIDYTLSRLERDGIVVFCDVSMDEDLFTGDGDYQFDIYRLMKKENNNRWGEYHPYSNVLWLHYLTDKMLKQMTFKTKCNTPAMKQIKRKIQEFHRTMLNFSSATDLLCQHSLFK
Chain of UniProt P32298 (whole entry, looked up): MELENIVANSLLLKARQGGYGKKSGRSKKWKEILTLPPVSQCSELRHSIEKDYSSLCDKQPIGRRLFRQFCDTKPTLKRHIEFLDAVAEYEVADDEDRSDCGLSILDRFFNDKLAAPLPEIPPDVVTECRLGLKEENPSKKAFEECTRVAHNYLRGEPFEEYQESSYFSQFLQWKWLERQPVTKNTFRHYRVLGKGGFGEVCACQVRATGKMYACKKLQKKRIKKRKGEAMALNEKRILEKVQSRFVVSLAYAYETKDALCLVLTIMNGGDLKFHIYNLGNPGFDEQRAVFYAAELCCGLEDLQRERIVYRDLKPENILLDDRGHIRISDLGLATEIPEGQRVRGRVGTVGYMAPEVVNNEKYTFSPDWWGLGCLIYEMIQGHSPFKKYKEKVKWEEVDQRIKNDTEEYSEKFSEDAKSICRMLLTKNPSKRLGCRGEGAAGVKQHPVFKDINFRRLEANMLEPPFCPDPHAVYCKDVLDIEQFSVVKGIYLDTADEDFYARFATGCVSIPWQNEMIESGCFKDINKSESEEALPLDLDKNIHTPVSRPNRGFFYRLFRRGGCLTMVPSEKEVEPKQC
Chain of UniProt Q8WXR4 (whole entry, looked up): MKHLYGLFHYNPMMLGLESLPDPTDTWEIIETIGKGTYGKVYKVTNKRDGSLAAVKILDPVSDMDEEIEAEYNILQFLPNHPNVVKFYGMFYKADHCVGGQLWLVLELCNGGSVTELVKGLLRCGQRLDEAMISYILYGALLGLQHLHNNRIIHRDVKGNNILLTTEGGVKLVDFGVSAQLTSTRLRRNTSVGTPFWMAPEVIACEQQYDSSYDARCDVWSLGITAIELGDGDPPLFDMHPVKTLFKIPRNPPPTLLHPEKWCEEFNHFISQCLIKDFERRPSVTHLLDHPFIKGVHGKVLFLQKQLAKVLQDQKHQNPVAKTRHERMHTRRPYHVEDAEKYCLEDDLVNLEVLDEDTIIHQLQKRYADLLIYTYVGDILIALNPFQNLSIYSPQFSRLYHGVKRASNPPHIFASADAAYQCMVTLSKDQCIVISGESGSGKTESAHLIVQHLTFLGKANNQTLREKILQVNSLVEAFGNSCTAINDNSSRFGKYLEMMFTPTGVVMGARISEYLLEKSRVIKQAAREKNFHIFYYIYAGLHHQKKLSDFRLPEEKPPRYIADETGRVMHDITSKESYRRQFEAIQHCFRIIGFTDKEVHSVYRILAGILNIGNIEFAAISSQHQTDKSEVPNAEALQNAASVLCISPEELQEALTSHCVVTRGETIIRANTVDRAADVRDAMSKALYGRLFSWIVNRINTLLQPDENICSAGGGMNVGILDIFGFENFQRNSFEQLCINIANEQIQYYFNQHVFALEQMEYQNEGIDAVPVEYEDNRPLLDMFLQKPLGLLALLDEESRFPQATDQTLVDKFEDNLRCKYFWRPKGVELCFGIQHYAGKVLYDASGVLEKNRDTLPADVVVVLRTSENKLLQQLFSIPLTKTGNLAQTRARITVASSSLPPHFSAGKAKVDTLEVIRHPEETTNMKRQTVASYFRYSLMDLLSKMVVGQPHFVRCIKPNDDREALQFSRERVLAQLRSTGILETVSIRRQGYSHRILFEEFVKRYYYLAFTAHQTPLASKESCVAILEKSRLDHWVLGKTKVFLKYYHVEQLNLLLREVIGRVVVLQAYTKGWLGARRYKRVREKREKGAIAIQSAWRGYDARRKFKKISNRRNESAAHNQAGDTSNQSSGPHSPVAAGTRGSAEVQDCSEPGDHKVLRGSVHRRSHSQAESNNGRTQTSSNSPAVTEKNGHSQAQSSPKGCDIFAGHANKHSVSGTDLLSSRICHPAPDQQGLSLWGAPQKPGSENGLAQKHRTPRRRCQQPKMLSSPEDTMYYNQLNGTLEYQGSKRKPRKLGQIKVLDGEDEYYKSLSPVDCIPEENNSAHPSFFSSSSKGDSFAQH
Chain of UniProt Q9Y2H1 (whole entry, looked up): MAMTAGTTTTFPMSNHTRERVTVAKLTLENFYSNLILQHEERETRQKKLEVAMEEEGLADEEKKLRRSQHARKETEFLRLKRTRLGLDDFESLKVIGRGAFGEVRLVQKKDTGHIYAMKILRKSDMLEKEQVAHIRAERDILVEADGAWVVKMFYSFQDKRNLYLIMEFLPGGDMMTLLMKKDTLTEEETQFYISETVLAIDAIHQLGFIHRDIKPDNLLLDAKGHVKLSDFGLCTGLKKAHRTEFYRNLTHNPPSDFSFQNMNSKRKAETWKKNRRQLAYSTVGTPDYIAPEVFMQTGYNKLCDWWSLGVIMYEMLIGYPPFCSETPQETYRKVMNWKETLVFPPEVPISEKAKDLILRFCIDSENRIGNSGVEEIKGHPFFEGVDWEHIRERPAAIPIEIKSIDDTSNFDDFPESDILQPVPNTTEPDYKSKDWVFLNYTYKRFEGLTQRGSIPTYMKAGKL
Chain of UniProt Q9BVS4 (whole entry, looked up): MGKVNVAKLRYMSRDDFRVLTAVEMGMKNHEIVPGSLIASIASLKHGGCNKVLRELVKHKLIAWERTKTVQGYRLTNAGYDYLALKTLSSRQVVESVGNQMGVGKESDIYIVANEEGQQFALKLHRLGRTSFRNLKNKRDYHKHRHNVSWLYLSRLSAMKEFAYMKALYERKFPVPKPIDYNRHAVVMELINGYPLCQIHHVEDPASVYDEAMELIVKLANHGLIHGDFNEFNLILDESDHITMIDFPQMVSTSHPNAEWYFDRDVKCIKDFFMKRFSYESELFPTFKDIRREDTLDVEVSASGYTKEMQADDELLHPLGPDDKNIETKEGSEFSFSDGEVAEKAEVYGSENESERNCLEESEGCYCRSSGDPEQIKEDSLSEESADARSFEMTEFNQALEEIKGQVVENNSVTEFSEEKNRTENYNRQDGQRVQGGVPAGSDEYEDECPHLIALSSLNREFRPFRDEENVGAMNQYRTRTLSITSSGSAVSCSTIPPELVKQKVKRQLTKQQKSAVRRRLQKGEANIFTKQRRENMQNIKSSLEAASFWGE

Block 1
Structure (SMILES): CC(C)n1cnc(-c2ccc(F)cc2)c1-c1ncc(C(=O)Nc2ccc(N3CCN(C)CC3)cc2)[nH]1
Method: phase 2a trial
Host: idiopathic pulmonary fibrosis patients
conditions | patients with decreased appetite [%]
dose not given, adverse event grade 3, all dose arms pooled | 0
dose not given, adverse event grade 4, all dose arms pooled | 0
60 mg once daily, adverse event grade 4 | 0

Block 2
SMILES: COc1ccc2c(c1)O[C@H](c1ccc(OC)c(OC)c1)C[C@@H]2NC(=O)C1(c2ccc3c(c2)OC(F)(F)O3)CC1
Method: competition with immobilised ligand
Concentration: 1 µM
target | assay | remaining binding
Tyrosine-protein kinase ABL1, non-phosphorylated (ABL1, Homo sapiens, UniProt P00519, F317I) | cell-free assay | 100%
Myosin-IIIb (MYO3B, Homo sapiens, UniProt Q8WXR4) | binding | 39%
FLT3 (Homo sapiens, UniProt P36888, K663Q) | cell-free assay | 100%
PTK2 (Homo sapiens, UniProt Q05397) | cell-free assay | 100%
Tyrosine-protein kinase ABL1, non-phosphorylated (ABL1, Homo sapiens, UniProt P00519, H396P) | cell-free assay | 100%
HASPIN (Homo sapiens, UniProt Q8TF76) | cell-free assay | 91%
MINK1 (Homo sapiens, UniProt Q8N4C8) | cell-free assay | 100%
STK10 (Homo sapiens, UniProt O94804) | cell-free assay | 100%
MERTK (Homo sapiens, UniProt Q12866) | cell-free assay | 98%
STK38L (Homo sapiens, UniProt Q9Y2H1) | cell-free assay | 100%
ALK (Homo sapiens, UniProt Q9UM73, L1196M) | cell-free assay | 100%
FLT1 (Homo sapiens, UniProt P17948) | cell-free assay | 100%
RIOK2 (Homo sapiens, UniProt Q9BVS4) | cell-free assay | 100%
GRK4 (Homo sapiens, UniProt P32298) | cell-free assay | 100%
EPHB2 (Homo sapiens, UniProt P29323) | cell-free assay | 84%
MAP3K15 (Homo sapiens, UniProt Q6ZN16) | cell-free assay | 100%

Block 3
Compound: CCOc1ccc(Nc2c3c(nc4ccccc24)CCC3)cc1
Organism: Leishmania donovani
Strain: DD8
assay | system | conditions | inhibition
parasite viability, resazurin | promastigotes | 0.33 µM | -4% and 4% and -1% and 0% and -3% and 5%
parasite killing | intracellular amastigotes | 0.4 µM, 96 h | 28% and 14% and 16%
parasite killing | intracellular amastigotes | 2 µM, 48 h | 54% and 57% and 60%

Block 4
Cell line: mouse MPNST tumor cells
Method: high-content immunofluorescence imaging
Measured: nuclear SOX9
Concentration: 10 µM
Time: 12 h
Setting: mean of 2 replicates
Relative to: DMSO control
Reading: higher = more nuclear SOX9
SMILES | nuclear SOX9 intensity
COc1cc(C)nc(-n2nc(C)cc2OC)n1 | 107 % of DMSO
CC(C)(C)NC(=O)CN1CCC(CNC(=O)c2cc(F)cc(Cl)c2)CC1 | 99.8 % of DMSO
CN1CCN(c2c(F)cc3c(=O)c(C(=O)O)cn4c3c2SCC4)CC1 | 110 % of DMSO

Block 5
Organism: Sarcocystis neurona
Observed: parasite growth
Concentration: concentration not given
Setting: first screen
Relative to: untreated
Compound | log2 fold change
CC[C@@H](CO)NCCN[C@@H](CC)CO | -0.02
CC(N/C(=N\C#N)Nc1ccncc1)C(C)(C)C.O (stereo not shown) | 0.0333
C[C@]12C=CC(=O)C=C1CC[C@@H]1[C@@H]2[C@@H](O)C[C@@]2(C)[C@H]1CC[C@]2(O)C(=O)COC(=O)CCC(=O)[O-].[Na+] | 0.0373

Block 6
Host: human
Sample: microsomes or S9
Concentration: 2 µM
Time: 0.5 h
SMILES | remaining compound [%]
Cn1cc(-c2noc(C(O)C3CCCCCCC3)n2)nn1 (stereo not shown) | > 100
CN1CCN(CC2COc3cc4ncnc(Nc5ccc(F)c(Cl)c5)c4cc3O2)CC1 (stereo not shown) | 82.7
COc1cc(OC)c(C2Nc3cc(C)c(C)cc3NC3=C2C(=O)CC(C)(C)C3)cc1OC (stereo not shown) | 24

Other studies, line by line
Compound | tested on | assay | system | conditions | how to read | endpoint | result
O=C(COc1ccc(Cl)cc1)NC1CCC(NC(=O)COc2ccc(Cl)cc2)CC1 (stereo not shown) | HEK293T ATF4-firefly luciferase reporter | integrated stress response, measured: ATF4 |  | concentration not given | relative to: DMSO | reporter signal | 72.7% and 84.3% and 60.8% and 69.6% and 67% and 64.3% and 88% and 69.8%
CN(C(=O)c1ccn2ncc(-c3ccc(C(N)=O)cc3)c2c1)c1ccc(C#N)cn1 | Cryptosporidium parvum | time-kill | HCT-8, nanoluciferase-expressing | 0.00914 µM, 24 h | relative to: DMSO control | luminescence remaining | 92.1% and 114%
O=C1CCC(N2Cc3cc(C4CCN(Cc5ccccc5)CC4)ccc3C2=O)C(=O)N1 (stereo not shown) | human Treg:Teff co-culture |  |  | concentration not given, Treg suppression |  | proliferating CD8+ Teff cells | 88.4% and 57.2% and 88.1% and 86.6% and 85.9% and 46.2%

For quick reference, copied from above (block 2):
target | assay | remaining binding
STK38L (Homo sapiens, UniProt Q9Y2H1) | cell-free assay | 100%
Myosin-IIIb (MYO3B, Homo sapiens, UniProt Q8WXR4) | binding | 39%
STK10 (Homo sapiens, UniProt O94804) | cell-free assay | 100%
GRK4 (Homo sapiens, UniProt P32298) | cell-free assay | 100%
